Measurements gathered from unrelated publications.
Numbered parts are unrelated; each lists some results of a single study. Substitutions count along the parent as printed.

Block 1
Target: Ras GTPase-activating protein-binding protein 1, C-terminal RGG region (G3BP1, Homo sapiens, UniProt Q13283)
UniProt Q13283, sequence (whole entry, looked up): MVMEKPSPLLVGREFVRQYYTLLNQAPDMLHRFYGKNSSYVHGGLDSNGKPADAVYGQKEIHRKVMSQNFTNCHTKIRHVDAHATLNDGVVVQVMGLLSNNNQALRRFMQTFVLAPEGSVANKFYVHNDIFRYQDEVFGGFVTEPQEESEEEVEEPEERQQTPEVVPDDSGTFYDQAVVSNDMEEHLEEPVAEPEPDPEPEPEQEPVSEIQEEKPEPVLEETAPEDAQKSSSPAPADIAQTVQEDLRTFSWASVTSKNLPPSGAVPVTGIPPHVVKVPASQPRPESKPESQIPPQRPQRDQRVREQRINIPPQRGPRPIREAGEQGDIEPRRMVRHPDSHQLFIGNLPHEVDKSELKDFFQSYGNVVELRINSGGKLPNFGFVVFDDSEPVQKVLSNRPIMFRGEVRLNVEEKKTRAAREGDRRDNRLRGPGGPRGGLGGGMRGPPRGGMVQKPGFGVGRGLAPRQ
Technique: RNA Bind-n-Seq
Form: RNA
Sample: in vitro
Tested at: 1 µM
Notes: whole 134-nt RNA, ends assumed
With: 150 mM KCl
Reference: input library
Reading: higher = stronger binding
All sequences stand within: GGGAGUUCUACAGUCCGACGAUC … UGGAAUUCUCGGGUGUCAAGG
Sequence	log2 enrichment
CACAGACAACACGCGCCCACACAGACACAGAGGGAAGGGGUUGGGAUGGGGACAGGGUGCACAGCAGGGCGGGGUAGGACCCCAGCCCCU	-0.174
CACAGACAACACGCACCCACACAGACACAGAGGGAAGGGGUUGGGAUGGGGACAGGGUGCACAGCAGGCCGGGGUAGGACCCCAGCCCCU	-1.23
UCCUCAAGUCCUGUGCUACACAUCGUAUGUACCGAAUCGGUGGAAAGGUGGAAAGUAUUAUGUUACGCCGUUCGGAUCUGCACUUCCAGC	-0.897
GUCCUGUGCUACACAUCGUAUGUACCGAAUCGGCCCCCCGGGCCCCCCGGCCCCCCGGAAAGUAUUAUGUUACGCCGUUCGGAUCUGCAC	-0.723
AGUCCUGUGCUACACAUCGUAUGUACCGAAUCGGUUUUUGGAAAAAAAGGAAAAAGGAAAGUAUUAUGUUACGCCGUUCGGAUCUGCACU	-2.33
CCUGUGCUACACAUCGUAUGUACCGAAUCGGCCCCCCGGGGCCCCCCGGGCCCCCCGGGGAAAGUAUUAUGUUACGCCGUUCGGAUCUGC	-2.33
UGGGAGGUGGAUUUUGUUUAUUUUUUUAGCUCAUUUCCAGGGGUGUGAAUUUUUUUUUAAUAUGUGUCAUGAAUAAAGUUGUUUUUGAAA	3.1
GCAGGAAGUAAAAACAAAUGGAAAUGCUUAAAAUAGUGGCAGGGGUGGGGGUUGCUAAGGAAAGGGUGGGAUGGGAGUGGGUAAAGAGUU	2.37
CCUCAAGUCCUGUGCUACACAUCGUAUGUACCGAAUCGGUGGGGUGGGUGGGGAAAGUAUUAUGUUACGCCGUUCGGAUCUGCACUUCCA	0.991

Block 2
Target: CREBRF, bZIP domain (human)
Technique: DHFR protein complementation
Sample: yeast
Notes: single substitutions, most at no-binding floor
Reference: wild-type JUN-FOS pair
Reading: higher = stronger binding
Starting sequence: JUN, bZIP domain (human); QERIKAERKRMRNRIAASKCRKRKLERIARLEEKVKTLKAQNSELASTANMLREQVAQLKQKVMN; partner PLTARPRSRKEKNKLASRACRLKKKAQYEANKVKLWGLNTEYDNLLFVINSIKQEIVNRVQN
Substitution	binding fitness [natural log]
T48D	-1.25
R53Q	-1.47
K34E	-1.34
K36V	-1.31
K39T	-1.42

Block 3
Target: CCNF, cyclin fold, Cln2 fusion (human)
Technique: yeast growth competition, sequencing
Sample: yeast
Notes: strong parent motif
Reference: not given
Reading: higher = stronger binding
Starting sequence: CDKN1B docking peptide (human); PSACRNLFGPVDH
Substitution	normalised enrichment score
C4V	5.84
R5Y	0.296
N6H	2.38
H13Y	7.08
G9N	4.08
P10I	6.3
C4H	2.55

Single results of other studies
Substance	target	test	system	conditions	how to read	measurement	value
PhoQ, residues 284 288 289 292 302 303 DDMDFR	PhoP, residues 12 14 15 18 19 GHCSL (Escherichia coli, UniProt P23836)	Sort-seq, refers to: YFP reporter	E. coli	PhoQ-PhoP variant library, with: 10 µM Mg2+	reference: high Mg2+ state, higher = stronger signaling	fold induction	0.764

Excerpt of the above (block 1):
Sequence	log2 enrichment
UGGGAGGUGGAUUUUGUUUAUUUUUUUAGCUCAUUUCCAGGGGUGUGAAUUUUUUUUUAAUAUGUGUCAUGAAUAAAGUUGUUUUUGAAA	3.1
AGUCCUGUGCUACACAUCGUAUGUACCGAAUCGGUUUUUGGAAAAAAAGGAAAAAGGAAAGUAUUAUGUUACGCCGUUCGGAUCUGCACU	-2.33
